Assay results collected from several papers.
Every numbered part comes from another study and shows a few of its results, in no order.

Sample 1 — method: competition protein-binding microarray; molecule type: double-stranded DNA, one strand shown; medium: in vitro; concentration: 2 µM; together with: Pho4 competitor, 0.05 µM; reading: higher = stronger binding; all sequences stand within: … GTCTTGATTCGCTTGACGCTGCTG
Target: Centromere-binding protein 1, full length, His-tagged (CBF1, Saccharomyces cerevisiae, UniProt P17106, residues 1-351)
UniProt P17106, sequence (whole entry, looked up): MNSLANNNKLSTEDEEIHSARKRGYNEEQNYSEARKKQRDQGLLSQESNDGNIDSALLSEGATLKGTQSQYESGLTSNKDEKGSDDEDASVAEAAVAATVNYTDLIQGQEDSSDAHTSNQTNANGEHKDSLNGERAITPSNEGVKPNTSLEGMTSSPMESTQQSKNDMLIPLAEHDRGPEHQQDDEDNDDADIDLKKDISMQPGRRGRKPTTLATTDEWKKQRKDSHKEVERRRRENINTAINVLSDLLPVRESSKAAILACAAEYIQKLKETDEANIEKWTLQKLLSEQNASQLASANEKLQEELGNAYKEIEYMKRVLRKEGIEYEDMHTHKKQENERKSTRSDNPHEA
Notes: whole 60-bp probe, lowest competitor level
Sequence | fluorescence intensity [a.u.]
GACCTTATCAAAAAGCACGCTGCCGGCCAAGAAGTG | 80.3
GTCTTGTCTCATTGAAATGTGGGTGTCCCCACTTCA | 78.8
GAACTAATATTCCGTCACGTCACTTAAGTGCAAGGT | 182
TCCAGACGCTGTGGACACGTTAGACATCACCCTTGT | 74.7
CAGGGATCAGGGCACCACGTGGGGGAAGGACTGTGT | 655
CGGGGTTAAGTTTGGAAAGTGGGTGGCTTGCAGCAG | 64.6
AAATTACTAAGTTGAGAGGTGGGTGACGCCGTATGA | 69.2
CTTCTGTAAATTTTTCACGTGGATTGACGCGCCCCG | 569
TTTGTCCTGAGCAATCACCTGATAGTAACGCACCAG | 541
TGTATCCTATACAATCACGGGCGACGGACAAGACCC | 121
CGCTACCAACTGCGCCATGTGCCCTGATGACTGTTG | 88.7
CGGGGTTAAGTTTTTCACGTGATGTGCTTGCAGCAG | 3230
GCGGTCGGTAAATTTTTCGTGGGTATCTTTGAATCT | 75.8
TCCATTCGAGACCTGTCCGTGATGGCGAGGACAAGA | 65.2
ATTACTAAAGCCTCTCATGTGTTCTACGCCCATTGT | 76.6
CTTCTGTAAATTTGAGACGTGGGTGGACGCGCCCCG | 67
AAATTACTAAGTTGAGGGGTGGGTGACGCCGTATGA | 79.1

Sample 2 — method: RNA Bind-n-Seq; molecule type: RNA; medium: in vitro; concentration: 365 nM; reference: no-protein control; reading: higher = stronger binding
Target: RNA binding protein fox-1 homolog 2, RRM domain, GST-SBP tag (RBFOX2, Homo sapiens, UniProt O43251-10, residues 100-194)
Notes: natural RNA segment, single round, ends assumed
All sequences stand within: GGGAGUUCUACAGUCCGACGAUC … UGGAAUUCUCGGGUGCCAA
Construct (chain): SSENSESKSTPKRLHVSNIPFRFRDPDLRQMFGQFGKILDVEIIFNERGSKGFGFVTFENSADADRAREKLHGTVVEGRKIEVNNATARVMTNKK
Sequence | RBNS enrichment (R)
CAGGAGGGCCUGUAGAUAACCCUUCCAUUUCCUUCAUCUCAUCCAGUCUGUAGGGAUACAUUUUUCUGUGGUUGGUUUUCUUCAGCUAAGAGUCGCUGUCAGCAGGAGCU | 0.281
GGAAGGCUGUUAUACUCAGUGCCCGCCUUUGACCUAAAGCUGGCCAGCAUCCCUGGGGAAACCUGACUUGCAAUUUCUAGAGUUUAAGAUCUUCCCAUCGGCUGUGGCAA | 0.32
UUAUUGACACUUACUAAGAAAUGACAUUCUGUUAAAAAAAAUUAGGAAAAAAAUAUGGAAAAAAAAUAUCAGAGAAAAGUGUCAGAGAAAGUUGGAAGCUCAUAUCCCCA | 0.74
ACCAUGUGCCCCUGGCUGCCCUUAUCCGCCCAAACCAAAGGCUGAGAGGGGGAGGCCUGUGUCCUUCCAGCUUCAUUGCACAUGGUCCCCCUCCUGCAACCAGGCUACCU | 0.444
AUGCUGUAUUUUUGAAGGUAUUUUGUUGUAUUAAGUUUGAUGAAGCUAAAAUUAGGGAACUCUGAACAGAUUUGCAGGAAAAAAUGUUUUAAAGGCUUUAAAACAUUAGG | 1.77
CCGGGCCCGCUCAGGAUGCCCUGGCCCAGGCUUGGGGCUGCUGGGGUUGGAAUGUGGAACUGCAGCCUCAGCCCAUCUGGCAGAGUCCCAGGAACUCGGAGACUGGCACA | 0.614
ACUGUUUGAGGAAAAAUUACCUGUCUUGACUUCCUGUGUUUAUCAUCUUAAGUAUUGUAAGCUGCUGUGUAUGGAUCUCAUUGUAGUCAUACUUGUUUUCCCCAGAUGAG | 0.933
CUUUUAAAUCUCUUUGAAUCACAUUUGGUAGUGAUUUUGACUUAGUCCAGUAGUCACAUAGCUUUAAUAUCUAGUUCAAAGCUAACCAUAGUAUAAUUGUUAUAUUAAGG | 0.544
UGUAGAAUGAAGUAUAACGUCAGUGAAUGAGAGUCCAAGUUCUUAUCACACGAUAUUAGGUACUAAUUAUACCCUCAUUGCUUUAAAAUACACAUCAGGGUCUCUUUUAA | 0.249
GCCAGUUGCUGUUGCACAGGAGGCGAGAACAGCACACUUCAACCCCAGCUUGCUGGUCGGCUUUCCUCUAGAGAGAGCCGGUUUUGGGGCCAUUUCCCUUUGAUGCUUUG | 3.88
AGAAGGCGGAGAAGGAAGAAGUAACCUCUGAGUGGCGGCUAUUGCUUCUGUUCCAGGUGCUGUUCGAGCUGUUAGAACCCUUAGGCUUGACAGCUUUGUGAGUUAUUAUU | 0.368
GUAGUUCUCAGCAAAACUUUGUCAGUUGGCACUGUUUACAAGUCUGUUAGCUGCAUAAGCUCAAUAAAAAGUUGGUCUGGGCAUUGCAUCCCCUCUGACAGACCGAUAGC | 0.579

Sample 3 — method: universal PBM; molecule type: double-stranded DNA, one strand shown; medium: in vitro; concentration: 600 nM; reading: higher = stronger binding
Target: Sal-like protein 4, full length isoform A (SALL4, Homo sapiens, UniProt Q9UJQ4, residues 1-1053)
UniProt Q9UJQ4, sequence (whole entry, looked up): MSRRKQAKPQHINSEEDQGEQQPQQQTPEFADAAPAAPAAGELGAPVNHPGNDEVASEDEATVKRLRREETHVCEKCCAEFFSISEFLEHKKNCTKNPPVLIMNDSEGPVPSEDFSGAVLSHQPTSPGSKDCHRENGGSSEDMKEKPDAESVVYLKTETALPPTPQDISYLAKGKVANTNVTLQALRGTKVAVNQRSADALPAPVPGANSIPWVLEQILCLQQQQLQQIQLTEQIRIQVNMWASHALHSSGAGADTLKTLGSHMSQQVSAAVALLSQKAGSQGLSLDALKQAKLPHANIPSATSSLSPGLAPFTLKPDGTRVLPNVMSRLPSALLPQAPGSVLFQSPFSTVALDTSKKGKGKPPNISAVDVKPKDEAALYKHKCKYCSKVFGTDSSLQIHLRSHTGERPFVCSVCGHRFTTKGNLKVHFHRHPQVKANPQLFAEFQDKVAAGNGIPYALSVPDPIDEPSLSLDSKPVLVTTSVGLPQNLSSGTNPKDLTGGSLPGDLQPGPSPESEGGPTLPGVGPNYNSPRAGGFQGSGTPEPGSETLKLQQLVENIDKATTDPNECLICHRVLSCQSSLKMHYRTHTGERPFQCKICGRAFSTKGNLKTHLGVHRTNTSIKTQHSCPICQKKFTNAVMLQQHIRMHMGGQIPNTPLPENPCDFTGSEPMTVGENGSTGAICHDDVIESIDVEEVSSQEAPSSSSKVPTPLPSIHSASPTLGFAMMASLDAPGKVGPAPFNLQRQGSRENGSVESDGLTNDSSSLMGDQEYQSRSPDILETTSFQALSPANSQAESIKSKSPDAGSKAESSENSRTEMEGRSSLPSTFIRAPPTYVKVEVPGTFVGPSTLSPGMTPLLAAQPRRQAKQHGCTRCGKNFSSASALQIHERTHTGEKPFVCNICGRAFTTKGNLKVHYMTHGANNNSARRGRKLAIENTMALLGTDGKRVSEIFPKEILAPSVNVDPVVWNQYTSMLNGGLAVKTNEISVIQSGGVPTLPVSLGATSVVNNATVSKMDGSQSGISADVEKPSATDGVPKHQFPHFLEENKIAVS
Notes: 8-mer, flanks averaged, mean of replicates
Sequence | E-score
TGCGATAA | 0.283
GAATGGCA | 0.00715
CGTGGGAG | -0.246
AATGGGAT | 0.0577
AAAAAGAA | 0.205
CGAATTCG | -0.0797
ATCATCGC | 0.0769
GGATAAAA | 0.234
GGTTGCAA | -0.0212
AAACTCAT | 0.194
CAATGAGG | -0.193
GGGCGCAA | -0.167
CGCTACTA | -0.0134
CGGGTTTA | -0.0116
ACCCAACC | -0.138
AGGCCTGC | -0.348
AGCTCATC | -0.208
CGTACTAA | 0.229
AGGAATGA | 0.129
CATCACGA | 0.0889
AGTGTGGA | 0.0689
ACTTTCCT | -0.027
ACCACATC | -0.0694
ACCGCTGA | -0.0391

Sample 4 — method: RNA Bind-n-Seq; molecule type: RNA; medium: in vitro; concentration: 200 nM; notes: whole 134-nt RNA, ends assumed; together with: 150 mM KCl; reference: input library; reading: higher = stronger binding
Target: Fragile X messenger ribonucleoprotein 1, C-terminal low-complexity region (Fmr1, Mus musculus, UniProt P35922)
All sequences stand within: GGGAGUUCUACAGUCCGACGAUC … UGGAAUUCUCGGGUGUCAAGG
Sequence | log2 enrichment
AGUCCUGUGCUACACAUCGUAUGUACCGAAUCGGGAAAAAAAGGGUUUGGGAAAGGGAAAGUAUUAUGUUACGCCGUUCGGAUCUGCACU | -0.0468
CCUCAAGUCCUGUGCUACACAUCGUAUGUACCGAAUCGGUGGAGGUUUUUGGAAAGUAUUAUGUUACGCCGUUCGGAUCUGCACUUCCAG | 0.151
AGUCCUGUGCUACACAUCGUAUGUACCGAAUCGGGUUUUGGGUUUUGGGGUUUUGGGGAAAGUAUUAUGUUACGCCGUUCGGAUCUGCAC | 0.694
CAAGUCCUGUGCUACACAUCGUAUGUACCGAAUCGGGGUUUGGGGUUUGGUUUGGGAAAGUAUUAUGUUACGCCGUUCGGAUCUGCACUU | 0.0833
GUCCUGUGCUACACAUCGUAUGUACCGAAUCGGGGUUUGGGGUGGGGAAAAAAAGGGGAAAGUAUUAUGUUACGCCGUUCGGAUCUGCAC | 0.516
CACAGACAACACGCACCCACACAGACACAGAGGGAAGGGGUUGGGAUGGGGACAGGGUGCACAGCAGGGCGGGGUAGGACCCUAGCCCCU | 1.27
UCCUGUGCUACACAUCGUAUGUACCGAAUCGGGAAAAAAGGGGAAAAAAGGAAAAAAGGGAAAGUAUUAUGUUACGCCGUUCGGAUCUGC | -0.266
CAAGUCCUGUGCUACACAUCGUAUGUACCGAAUCGGGGAAAGGAAAGGGGAAAGGAAAGUAUUAUGUUACGCCGUUCGGAUCUGCACUUC | -0.177
CUCAAGUCCUGUGCUACACAUCGUAUGUACCGAAUCGUGUGUGUGUGUGUGUGUAAAGUAUUAUGUUACGCCGUUCGGAUCUGCACUUCC | 0.105
UCAAGUCCUGUGCUACACAUCGUAUGUACCGAAUCGGAGGUUUGGAAAAAAAGGAAAGUAUUAUGUUACGCCGUUCGGAUCUGCACUUCC | -0.921
AGUCCUGUGCUACACAUCGUAUGUACCGAAUCGGGAAAAAGGGAAAAAGGGAAAAAGGAAAGUAUUAUGUUACGCCGUUCGGAUCUGCAC | -0.418
CUGUGCUACACAUCGUAUGUACCGAAUCGGGGCCCCCCCGGGCCCCCCCGGGCCCCCCCGGAAAGUAUUAUGUUACGCCGUUCGGAUCUG | -1.06
CAAGUCCUGUGCUACACAUCGUAUGUACCGAAUCGGGGUUUGGGUUUGGGUUUGGGAAAGUAUUAUGUUACGCCGUUCGGAUCUGCACUU | 1.14
UCAAGUCCUGUGCUACACAUCGUAUGUACCGAAUCGGUUUUUUUGGAGGUUUGGAAAGUAUUAUGUUACGCCGUUCGGAUCUGCACUUCC | -0.68

Sample 5 — method: protein-binding microarray; molecule type: double-stranded DNA, one strand shown; medium: in vitro; concentration: 2200 nM top; notes: 60-bp whole probe; together with: salmon DNA 0.4 mg/ml; reference: random background probes; reading: higher = stronger binding; all sequences stand within: GCCTAGCAC … GTCTTGATTCGCTTGACGCTGCTG
Target: Interferon regulatory factor 7, full length, phosphomimetic (IRF7, Homo sapiens, UniProt Q92985, residues 1-503, S471D/S472D/S475D/S476D/S477D/S483D/S484D/S487D)
Residues (chain): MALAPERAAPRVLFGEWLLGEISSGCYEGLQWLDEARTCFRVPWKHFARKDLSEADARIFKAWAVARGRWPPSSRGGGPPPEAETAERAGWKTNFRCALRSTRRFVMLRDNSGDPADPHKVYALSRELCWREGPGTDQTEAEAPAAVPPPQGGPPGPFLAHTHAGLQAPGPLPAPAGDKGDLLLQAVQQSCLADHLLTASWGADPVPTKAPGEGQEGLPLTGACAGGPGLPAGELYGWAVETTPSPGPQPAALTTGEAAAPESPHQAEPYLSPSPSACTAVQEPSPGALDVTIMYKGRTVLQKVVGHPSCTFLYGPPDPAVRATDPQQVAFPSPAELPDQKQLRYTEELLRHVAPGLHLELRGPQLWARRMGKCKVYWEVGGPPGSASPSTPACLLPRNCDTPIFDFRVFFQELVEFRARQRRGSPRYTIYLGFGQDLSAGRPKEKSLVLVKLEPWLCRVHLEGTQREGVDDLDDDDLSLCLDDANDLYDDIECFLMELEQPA
Sequence | fitted relative affinity [z-score]
GACGAACGGAGTCTCGAGACGTGCTAG | -0.137
TTAGATTTCCTTTTCCTTTAGTGCTAG | 4.4
TTAGGTTTCGGACTGGGTTAGTGCTAG | 3.15
TTAGGTTTCGACTTTCGGTAAGTGCTA | 7.49
GACGATTTCGGGTCTCGAGACGTGCTA | 4.04
GACGGGATCCTTTTCCTGACGTGCTAG | 0.801
TCAGCTTTTTTTCCGAGACTGTGCTAG | 0.621
ATAGGTATCGGTTTCGGTTAGTGCTAG | 7.35
GGTAGGCGGGGCCCCTGGCCGTGCTAG | -1.08
TTAGGTTTCCTTCTCCTTGAGTGCTAG | 2.23
CTCATTCTCTGCTTCTGTATGTGCTAG | 2.36
TACGATTTCGGGACTGGAGACGTGCTA | 1.55
TTAGATATCGGTTTTCGATTAGTGCTA | 3.85
AGAGTTCCAGACAGCTCCCTGTGCTAG | 0.213
GACGGTCTCCTGATCCTGACGTGCTAG | 0.307
TACGGACTGCTTATCCTGACGTGCTAG | 0.636
GACGGCTCCGGTTTCGGGACGTGCTAG | 2.52
TCATTTCTTTCAAATGAAACTGTGCTA | 0.954
TCATTTCTCTCTGTGACACTGTGCTAG | 2.51
TTACAATTTGCTTTAGTCATGTGCTAG | 1.37
GACGGTTTCGGAATCGGGACGTGCTAG | 6.38
TTAAGTTTCGGTTCCGGTTAGTGCTAG | 12.9

Repeated from above (sample 5):
Sequence | fitted relative affinity [z-score]
TTAGGTTTCCTTCTCCTTGAGTGCTAG | 2.23
CTCATTCTCTGCTTCTGTATGTGCTAG | 2.36
TACGATTTCGGGACTGGAGACGTGCTA | 1.55
TTAGATATCGGTTTTCGATTAGTGCTA | 3.85
AGAGTTCCAGACAGCTCCCTGTGCTAG | 0.213
GACGGTCTCCTGATCCTGACGTGCTAG | 0.307
TACGGACTGCTTATCCTGACGTGCTAG | 0.636
GACGGCTCCGGTTTCGGGACGTGCTAG | 2.52
TCATTTCTTTCAAATGAAACTGTGCTA | 0.954
TCATTTCTCTCTGTGACACTGTGCTAG | 2.51
